Published values of several laboratories.
Lines come from different studies, so protocols differ. ± gives the spread as reported.
Cell line: HEK293

Cn1c(=O)c2c(nc(OCc3cn(CCc4ccccc4)nn3)n2C)n(C)c1=O has an IC50 of greater than 300 µM (cell growth or viability, MTT; 24 h).
The EC50 of Nc1nc2nc[nH]c2c(=S)[nH]1 is reported as 3.16 µM (cell viability, MTT; 48 h, high affinity phase).
With c1ccc(Cc2c(-c3ccccc3)n(Cc3ccccc3)c3ccccc23)cc1 the viability was 124% (cell growth or viability; 50 µM).
With Nc1ccn([C@@H]2O[C@H](CO)[C@@H](O)C2(F)F)c(=O)n1 the EC50 was 380 µM (cell viability, MTT; 48 h, low affinity phase).
CC(=O)O — result for reporter activity: “increased” (mouse C10orf99 promoter luciferase, activator; concentration not given, 12 h, serum-free medium; relative to: empty vector).
CC(C)(C)c1ccc(S(=O)(=O)/C=C/C#N)cc1 has an IC50 of greater than 100 µM (cell growth or viability, ATP luminescence; 24 h).
With COc1cc(OC)cc(-c2cc3ccccc3[nH]2)c1 the viability was 66.2% (cell growth or viability; 50 µM).
Cn1c(=O)c2c(nc(OCc3cn(C(c4ccccc4)c4ccccc4)nn3)n2C)n(C)c1=O has an IC50 of 284 µM (cell growth or viability, MTT; 24 h).
For Nc1nc2c(ncn2[C@@H]2O[C@H](COP(=O)(O)OP(=O)(O)OP(=O)(O)OC[C@H]3O[C@@H](n4cnc5c(N)ncnc54)[C@H](O)[C@@H]3O)[C@@H](O)[C@H]2O)c(=O)[nH]1, “relative protein expression” read 0.45 ± 0.21 (luciferase reporter; mRNA capped with cpd; relative to: m7GpppG-capped mRNA).
Nc1ccn([C@@H]2O[C@H](CO)[C@@H](O)[C@@H]2O)c(=O)n1 gave an EC50 of 0.676 µM (cell viability, MTT; 48 h, high affinity phase).
For Cc1ccc(S(=O)(=O)/C=C/C#N)cc1, the IC50 was 2.73 µM (cell growth or viability, ATP luminescence; 24 h).
For Cc1ccccc1-c1cc2ccccc2[nH]1, the viability was 121% (cell growth or viability; 50 µM).
For Cc1ccc(Cn2cc(COc3nc4c(c(=O)n(C)c(=O)n4C)n3C)nn2)cc1, the IC50 was greater than 300 µM (cell growth or viability, MTT; 24 h).
The EC50 of Nc1nc(Cl)nc2c1ncn2[C@H]1C[C@H](O)[C@@H](CO)O1 is reported as 10.5 µM (cell viability, MTT; 48 h, high affinity phase).
O=C1C(O)=C([C@H]2CC[C@H](c3ccc(Cl)cc3)CC2)C(=O)c2ccccc21 has an IC50 of greater than 6 µM (oxygen consumption).
With COc1cc(O)cc(O)c1C(=O)/C=C/c1ccccc1 the IC50 was 27.5 µM (cell growth or viability, ATP luminescence; 24 h).
CCN(CC)CCOC(=O)C(c1ccccc1)C1CCCCC1 (stereo not drawn) — result for “nonspecific calcium flux concentration”: greater than 500 µmol/L.
For Nc1ccc(-c2cc3ccccc3[nH]2)cc1, the viability was 59.7% (cell growth or viability; 50 µM).
[H]/N=C(\N/C(=N/[H])Nc1ccc(Cl)cc1)NC(C)C has an IC50 of greater than 10 µM (oxygen consumption).
With Fc1cc(F)cc(-c2cc3ccccc3[nH]2)c1 the viability was 108% (cell growth or viability; 50 µM).
O=C(c1ccc(Nc2nccc(-c3cc4ccccc4s3)n2)cc1)N1CCC(N2CCCC2)CC1 gave an IC50 of 1.51 µM (cell growth or viability, ATP luminescence; 24 h).
c1cncc(-c2cc3ccccc3[nH]2)c1 gave a viability of 71.4% (cell growth or viability; 50 µM).
The IC50 of CCCCCCCCn1cc(COc2nc3c(c(=O)n(C)c(=O)n3C)n2C)nn1 is reported as 194 µM (cell growth or viability, MTT; 24 h).
Brc1ccc2[nH]c(-c3ccccc3)cc2c1 gave a viability of 86.1% (cell growth or viability; 50 µM).
For Nc1nc(Cl)nc2c1ncn2[C@@H]1O[C@H](CO)[C@@H](O)[C@@H]1F, the EC50 was 0.123 µM (cell viability, MTT; 48 h, high affinity phase).
Clc1ccc(-c2cc3ccccc3[nH]2)cc1Cl gave a viability of 115% (cell growth or viability; 50 µM).
For CN(Cc1cnc2nc(N)nc(N)c2n1)c1ccc(C(=O)N[C@@H](CCC(=O)O)C(=O)O)cc1, the IC50 was 38 µM (cell growth or viability, MTT; 24 h).

Repeated from above:
For CN(Cc1cnc2nc(N)nc(N)c2n1)c1ccc(C(=O)N[C@@H](CCC(=O)O)C(=O)O)cc1, the IC50 was 38 µM (cell growth or viability, MTT; 24 h).
Nc1ccn([C@@H]2O[C@H](CO)[C@@H](O)[C@@H]2O)c(=O)n1 gave an EC50 of 0.676 µM (cell viability, MTT; 48 h, high affinity phase).
With Fc1cc(F)cc(-c2cc3ccccc3[nH]2)c1 the viability was 108% (cell growth or viability; 50 µM).
